Published values of several laboratories.
Numbered parts are unrelated; each lists some results of a single study.

Sample 1
Target: Probable WRKY transcription factor 33, C-terminal DNA-binding domain (WRKY33, Arabidopsis thaliana, UniProt Q8S8P5, residues 346-449)
Method: DNA-protein interaction ELISA
Molecule type: double-stranded DNA, one strand shown
Sample: in vitro, bacterial lysate
Tested at: not given
Setting: whole dsDNA probe, crude lysate protein
Reference: highest signal in screen
Reading: higher = stronger binding
Endpoint: relative absorbance
Residues (chain): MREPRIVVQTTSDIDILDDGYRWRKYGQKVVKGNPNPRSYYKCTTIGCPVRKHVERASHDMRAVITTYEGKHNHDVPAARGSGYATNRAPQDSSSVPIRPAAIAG
AAAAAAGGCGTCTGACTGTAACTCGTAAAA: 99.8 % of maximum
AAAAAAACTATAGTCTTTGTCATGATAAAA: 34.3 % of maximum
AAAAAATGATGTTGGCGCATTTAAACAAAA: 33.5 % of maximum
AAAAAATCGTAAATGCCCATAGCCGTAAAA: 38.3 % of maximum
AAAAAATTGCCGTCATAATTGTGGTAAAAA: 26.9 % of maximum

Sample 2
Target: Ras GTPase-activating protein-binding protein 1, full length (G3BP1, Homo sapiens, UniProt Q13283)
Chain of UniProt Q13283 (whole entry, looked up): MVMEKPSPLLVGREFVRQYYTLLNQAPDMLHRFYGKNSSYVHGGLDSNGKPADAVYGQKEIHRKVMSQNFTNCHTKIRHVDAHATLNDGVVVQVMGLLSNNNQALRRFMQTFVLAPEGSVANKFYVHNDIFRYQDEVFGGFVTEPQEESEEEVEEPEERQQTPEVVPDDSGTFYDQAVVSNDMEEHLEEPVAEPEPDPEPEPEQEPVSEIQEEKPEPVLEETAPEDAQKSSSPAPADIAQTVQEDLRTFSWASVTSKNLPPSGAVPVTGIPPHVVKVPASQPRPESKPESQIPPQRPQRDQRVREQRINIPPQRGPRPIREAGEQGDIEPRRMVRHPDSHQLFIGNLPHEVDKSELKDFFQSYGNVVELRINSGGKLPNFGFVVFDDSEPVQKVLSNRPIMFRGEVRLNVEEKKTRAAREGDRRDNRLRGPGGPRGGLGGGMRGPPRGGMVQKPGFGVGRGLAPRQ
Method: RNA Bind-n-Seq
Molecule type: RNA
Sample: in vitro
Tested at: 200 nM
Setting: whole 134-nt RNA, ends assumed
With: 150 mM LiCl
Reference: input library
Reading: higher = stronger binding
Endpoint: log2 enrichment
Each molecule: 7-deaza-guanosine replaces G
Shared flanks, not repeated: GGGAGUUCUACAGUCCGACGAUC … UGGAAUUCUCGGGUGUCAAGG
CUCAAGUCCUGUGCUACACAUCGUAUGUACCGAAUCGGUUGGGGUUGGGGUUGGAAAGUAUUAUGUUACGCCGUUCGGAUCUGCACUUCC: 0.0751
UCAAGUCCUGUGCUACACAUCGUAUGUACCGAAUCGGAGGUUUUUUUGGAAAGGAAAGUAUUAUGUUACGCCGUUCGGAUCUGCACUUCC: -0.636
CCUGUGCUACACAUCGUAUGUACCGAAUCGGGGUUUUUUUGGGGAGGGGAAAAAAAGGGGAAAGUAUUAUGUUACGCCGUUCGGAUCUGC: 0.563
ACCAUGCAGGUGGGCAUCUUUGGGAAGUGGGGCAAGGGGGGGAUAGGGAGGGGGGUAACACUUUGGGAACAGUUGGUCCCAGGUCGUUUC: 0.324
ACCAUGCAGGUGGGCAUCUUUGGGAAGUGGGGCAAGGGGGGGAUAUGGAGGGGGGUAACACUUUGGGAACAGGUGGUCCCAGGUCGUUUC: 0.256

Sample 3
Target: Interferon regulatory factor 3, full length, phosphomimetic (IRF3, Homo sapiens, UniProt Q14653, residues 1-427, S386D/S396D/S398D/S402D/T404D/S405D)
Method: protein-binding microarray
Molecule type: double-stranded DNA, one strand shown
Sample: in vitro
Tested at: 2540 nM top
Setting: 60-bp whole probe
With: salmon DNA 0.4 mg/ml
Reference: random background probes
Reading: higher = stronger binding
Endpoint: fitted relative affinity
Target sequence (chain): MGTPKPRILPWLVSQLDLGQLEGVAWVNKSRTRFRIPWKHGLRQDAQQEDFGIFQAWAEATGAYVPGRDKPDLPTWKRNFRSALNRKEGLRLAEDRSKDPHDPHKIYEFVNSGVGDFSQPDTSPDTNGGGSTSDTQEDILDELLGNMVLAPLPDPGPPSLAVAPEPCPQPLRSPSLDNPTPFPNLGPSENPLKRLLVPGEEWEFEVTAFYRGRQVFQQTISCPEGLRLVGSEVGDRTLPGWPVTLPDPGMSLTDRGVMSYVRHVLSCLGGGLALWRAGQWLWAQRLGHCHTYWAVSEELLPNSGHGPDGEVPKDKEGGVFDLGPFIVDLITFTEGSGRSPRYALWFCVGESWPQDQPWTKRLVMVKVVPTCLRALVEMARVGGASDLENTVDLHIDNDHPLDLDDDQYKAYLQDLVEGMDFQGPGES
GCCTAGCACTTTAAATTCTAATTAGAATTGTGCTAGGTCTTGATTCGCTTGACGCTGCTG: 0.843 z-score
GCCTAGCACTTATGTCTCGGTCTCGGTTAGTGCTAGGTCTTGATTCGCTTGACGCTGCTG: 1.29 z-score
GCCTAGCACCTTTACTTCACTCTCTGCTTGTGCTAGGTCTTGATTCGCTTGACGCTGCTG: 1.09 z-score

Mixed results
PhoQ, residues 284 288 289 292 302 303 SQSLSM — fold induction (PhoP, residues 12 14 15 18 19 LYHSL (Escherichia coli, UniProt P23836); Sort-seq, refers to: YFP reporter; E. coli; PhoQ-PhoP variant library, with: 10 µM Mg2+; reference: high Mg2+ state, higher = stronger signaling): 0.75
